Measurements gathered from unrelated publications.
A part holds a random share of what one study measured. Substitutions count along the parent as printed.

Study 1
Target: Interferon regulatory factor 5, full length, phosphomimetic (IRF5, Homo sapiens, UniProt Q13568-2, residues 1-514, S451D/S453D/S456D/S462D)
Method: protein-binding microarray
Form: double-stranded DNA, one strand shown
Medium: in vitro
Concentration: 940 nM top
Setting: 60-bp whole probe
With: salmon DNA 0.4 mg/ml
Reference: random background probes
Direction: higher = stronger binding
Measurement: fitted relative affinity
All sequences stand within: GCCTAGCAC … GTCTTGATTCGCTTGACGCTGCTG
GACGATCTCAGGCTCGAGACGTGCTAG: -0.221 z-score
TCACTTTGGCCTCTAGGACTGTGCTAG: -0.241 z-score
TTAGGTATCGGTATTGGTTAGTGCTAG: 8.92 z-score
TTAGGTATCGGTTTCGGCTAGTGCTAG: 11.5 z-score
GACGGTGTCGGTATCGGGACGTGCTAG: 1.76 z-score
GACGGTTTGGGTTCCGGGACGTGCTAG: 0.164 z-score
ATAGAACTGAGTTTCGATTAGTGCTAG: 7.98 z-score
TGCTTTCTTTAACTCATTTTGTGCTAG: 1.95 z-score
TCATCACTTTCTTTAACACTGTGCTAG: 2.22 z-score
TTAGGACTGGACCATCGGTTAGTGCTA: -0.759 z-score
TTAGATATCTGTTTCGATTAGTGCTAG: 3.43 z-score
TTAGATTTCAGAATCGATTAGTGCTAG: 0.526 z-score
GACGGACTGGGTTTCGGAACGTGCTAG: 3.03 z-score
GCCGGTTTCGGGTTTCGGGACGTGCTA: 9.55 z-score
CGGAATTTCCCTCTGCTCCTGTGCTAG: 0.327 z-score
TCATCTTTGCTCATTTTTACTGTGCTA: 1.2 z-score
AAAAATTAGTGTTTCCCCTAGTGCTAG: 0.558 z-score
CATCATTGCCTATTTTTCACCGTGCTA: 0.994 z-score
GACGGTTGCGGGTATCGGGACGTGCTA: 1.19 z-score
GACGGACTGGCCTTTCGGGACGTGCTA: -0.356 z-score
GACGGTATCGATTTCGGGACGTGCTAG: 7.66 z-score
GACGGTTTCGGTCTCGGGAGGTGCTAG: 13.4 z-score
TCAACTTGTCTTTTCACACTGTGCTAG: 0.644 z-score
TCACATTTCCTTTACATACTGTGCTAG: 1.7 z-score
GACGTTTTCGGTATCGGGACGTGCTAG: 4.81 z-score

Study 2
Target: RNA binding protein fox-1 homolog 2, RRM domain, GST-SBP tag (RBFOX2, Homo sapiens, UniProt O43251-10, residues 100-194)
Method: RNA Bind-n-Seq
Form: RNA
Medium: in vitro
Concentration: 365 nM
Setting: natural RNA segment, single round, ends assumed
Reference: no-protein control
Direction: higher = stronger binding
Measurement: RBNS enrichment (R)
Construct (chain): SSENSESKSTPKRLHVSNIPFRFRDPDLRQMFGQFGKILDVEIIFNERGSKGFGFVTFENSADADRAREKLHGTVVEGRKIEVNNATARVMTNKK
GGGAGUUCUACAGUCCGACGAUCGCCCGCAUGAGAGAGGUGUGUGAUGAAGUCAAAGCACACCUGCUGGCAGACAUGGCCCACAUCAGUGGCCUGGUGGCUGCCAAGGUGAUUCCCUCGCCUUUCAAGCACGCUGGAAUUCUCGGGUGCCAA: 2
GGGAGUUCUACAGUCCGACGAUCAACAGGCGAGCUCCUGAGGGCUCUCCAAGGCUGCAGACUGAGGUCCUUGAGUGCCCAGGCUUGAAGCACAUUGGCUGUCAUUCUGAUGUGACUCGAGAUUGCAGUUGCAAUGGAAUUCUCGGGUGCCAA: 0.346
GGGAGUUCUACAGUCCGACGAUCCAGUGCUUGAUAUUUCAGAGUCAGUCAUUGGUUAUACAUGUGUAGUUCCAAAGCACAUAAGCUAGAAGAAGAAAUAUUUCUAGGAGCACUACCAUCUGUUUUCAACAUGAUGGAAUUCUCGGGUGCCAA: 0.404
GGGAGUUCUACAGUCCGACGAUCCAACAGAAUGUCCGACAGCAUCCUUUAAAACUUAAAGAGAAAGACAACUUUGCAGAAAGAGACACAGCUGGCUCUCUGCAGUGGUGUCCUCUCUGUUGCGUGUGUCGAGAUGGAAUUCUCGGGUGCCAA: 0.461
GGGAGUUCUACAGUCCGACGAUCGCUUUUUAAAAAUGACAAAUAUGUACUGUGUUGUGAUAAAAAGUAUUUUAUUUGUUUAAUGAUAUGCAUGCUUUUCUUCUGUAAAUAUAUAAUAAAUUUUUGUAGAUAGUUGGAAUUCUCGGGUGCCAA: 86.8
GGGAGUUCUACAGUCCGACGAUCUAUUUAUCUUGUACAUAUGUAUUUAGAAAACUUUUAAACUUGAAAAAUAAAUAAUACUUAAUGUUAAGUGUGUGUUUAUAUGAAACGUGUGUCUGGGAGUGAACUGCUUAUGGAAUUCUCGGGUGCCAA: 0.561
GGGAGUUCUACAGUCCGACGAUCAAUAACUAAGAGAUUCUUCUAGGGGUAGCUGGUGGUUGUGCCUUUUGUAGGCUGUUCCCUUUGCCUUAAACCUGAAGAUGUCUCCUCAAGCCUGUGGGCAGCAUGCCCAGUGGAAUUCUCGGGUGCCAA: 4.48
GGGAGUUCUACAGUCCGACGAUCAAGAAAAUAUUUUUGUCAAUUCUUAUUCUUUUAUAAUUAUGUGGUAUGUAGACUCAUUAAACAAUUCAAAUGAAAGUGGUGCCGCAGUGAGGCUCCUUCUCAAGUGGUGUUGGAAUUCUCGGGUGCCAA: 0.417
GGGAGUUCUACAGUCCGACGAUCGAAGACUGCCUUUCCUGGUAGGCCUGCCAGACAGAGCGCCCUUUACAAGACACACCUCAAGCUUUACCAGCUCAAGCGUCUGUCCUUGGAGGCUCAGCAGAUUUAUUUAAUGGAAUUCUCGGGUGCCAA: 0.207
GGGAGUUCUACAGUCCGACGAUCAAUAGGAGUUACCCAUCAGGUUUCUCUUGGGAUUUUGUAAAUGGAGAGGACAGUUCUUAGUCCAAUAAAAAUAUGCAGAUUGUAUGUAAUGAAAUUUUGUAAGCACAGGUUGGAAUUCUCGGGUGCCAA: 1.31
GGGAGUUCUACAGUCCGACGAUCUUUAAAGAGGCAUCUAGGGAAUUGUCAGGCACCCUACAGGAAGGCCUGCCAUGCUGUGGCCAACUGUUUCACUGGAGCAAGAAAGAGAUCUCAUAGGACGGAGGGGGAAAUGGAAUUCUCGGGUGCCAA: 1.13
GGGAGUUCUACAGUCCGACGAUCAGAGAGGGAGAGAAGGCCCUUGCCACGUCCGGGGUGCAGGGUCUACCCACAGAACACUGUGAGUGGUGAGCACCAAGAUGGGUUGCCAGCCUCAUUUGCUCUUUGAACGAUGGAAUUCUCGGGUGCCAA: 0.297

Study 3
Target: ABI1, truncated, D143A, DHFR fusion (Arabidopsis thaliana)
Method: DHFR PCA, deep sequencing
Medium: yeast
Setting: methotrexate growth selection, single substitutions
With: (+)-ABA 0.0091 µM
Reference: wild-type fitted maximum
Direction: higher = stronger binding
Measurement: relative binding score
Starting sequence: PYL1, truncated, DHFR fusion (Arabidopsis thaliana); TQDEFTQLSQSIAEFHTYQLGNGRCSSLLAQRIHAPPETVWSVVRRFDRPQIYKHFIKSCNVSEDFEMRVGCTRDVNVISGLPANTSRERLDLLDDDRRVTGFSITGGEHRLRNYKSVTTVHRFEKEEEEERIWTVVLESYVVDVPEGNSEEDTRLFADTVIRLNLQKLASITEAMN; partner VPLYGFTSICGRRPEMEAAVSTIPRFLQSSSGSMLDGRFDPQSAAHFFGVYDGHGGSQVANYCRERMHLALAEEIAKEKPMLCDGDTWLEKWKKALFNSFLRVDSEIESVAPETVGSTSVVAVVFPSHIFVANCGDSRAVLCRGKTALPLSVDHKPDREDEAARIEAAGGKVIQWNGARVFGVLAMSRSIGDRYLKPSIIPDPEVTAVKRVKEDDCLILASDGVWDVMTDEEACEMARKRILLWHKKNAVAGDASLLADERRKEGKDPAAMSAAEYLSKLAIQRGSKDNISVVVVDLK
E131M: 33.7%
V121R: 5.37%
R46M: 3.51%
V143P: -4.77%
H122M: -0.831%
T6H: 51.1%
T106C: 14.1%
K168I: -5.08%
L8A: -2.48%
E128Y: 22.3%
S140D: -5.99%
T73I: 37.4%
S9D: 6.6%
T17P: -5.62%
V136P: -7.81%
E109S: 3.59%
Q10S: 39.4%
E14D: 9.56%
V44N: -1.1%

Study 4
Target: JUN, bZIP domain (human)
Method: DHFR protein complementation
Medium: yeast
Setting: single substitutions, most at no-binding floor
Reference: wild-type JUN-FOS pair
Direction: higher = stronger binding
Measurement: binding fitness
Starting sequence: JUN, bZIP domain (human); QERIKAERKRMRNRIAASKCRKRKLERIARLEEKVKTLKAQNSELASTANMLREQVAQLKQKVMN; partner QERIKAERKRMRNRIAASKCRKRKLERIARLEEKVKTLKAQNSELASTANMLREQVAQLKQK
R30A: 0.00879 natural log
L31K: -1.19 natural log
A49W: -1.15 natural log
M51T: -0.177 natural log
Q55C: -0.599 natural log
K39S: -0.176 natural log
T37G: -0.388 natural log
K39G: -0.583 natural log
A49R: -0.818 natural log
A46G: -0.743 natural log

Study 5
Target: CCNF, cyclin fold, Cln2 fusion (human)
Method: yeast growth competition, sequencing
Medium: yeast
Setting: strong parent motif
Reference: not given
Direction: higher = stronger binding
Measurement: normalised enrichment score
Starting sequence: CDKN1B docking peptide (human); PSACRNLFGPVDH; partner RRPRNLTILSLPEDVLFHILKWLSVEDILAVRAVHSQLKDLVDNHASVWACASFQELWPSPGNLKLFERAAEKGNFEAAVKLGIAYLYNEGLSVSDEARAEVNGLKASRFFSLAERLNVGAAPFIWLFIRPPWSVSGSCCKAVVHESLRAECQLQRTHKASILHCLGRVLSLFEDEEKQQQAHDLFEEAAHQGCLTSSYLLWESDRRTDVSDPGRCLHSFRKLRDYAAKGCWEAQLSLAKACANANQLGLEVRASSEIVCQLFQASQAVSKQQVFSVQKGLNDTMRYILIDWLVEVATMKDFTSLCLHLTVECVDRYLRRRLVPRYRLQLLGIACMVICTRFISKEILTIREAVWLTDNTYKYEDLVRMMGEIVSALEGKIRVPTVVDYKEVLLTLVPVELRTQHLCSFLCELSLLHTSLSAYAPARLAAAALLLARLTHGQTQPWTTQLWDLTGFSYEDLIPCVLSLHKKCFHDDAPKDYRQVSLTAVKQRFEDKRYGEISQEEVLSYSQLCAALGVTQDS
R5H: 0.326
F8Y: 1.71
H13P: 6.92
L7K: 0.743
L7E: -0.155
N6M: 6.03
L7S: 0.341
V11K: 5.89
L7M: 0.636
V11L: 7.33
R5A: -0.271
V11R: 7.95
P10K: 6.95
A3V: 8.1
R5W: -0.0753
P10T: 6.47
P1V: 7.08
P1T: 7.51
D12V: 6.85
L7I: 5.41
D12I: 7.45
F8R: 0.959
A3I: 8.29
D12Q: 6.77
N6Q: 6.93
